# Published values of several laboratories.
# Every numbered part comes from another study and shows a few of its results, in no order. Substitutions count along the parent as printed.

# Sample 1
# Target: Histone acetyltransferase KAT6A, winged helix 1, GST fusion (KAT6A, Homo sapiens, UniProt Q92794, residues 1-85)
# Technique: protein binding microarray
# Form: double-stranded DNA, one strand shown
# Matrix: in vitro
# Tested at: not given
# Setting: 8-mer, flanks averaged, mean of 2 arrays, mostly near background
# Relative to: not given
# Reading: higher = stronger binding
# Target sequence (chain): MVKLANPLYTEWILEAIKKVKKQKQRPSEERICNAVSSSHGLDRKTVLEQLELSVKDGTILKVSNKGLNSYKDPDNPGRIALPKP
Strand,E-score
GACCTATA,-0.0767
CCCAGATA,-0.232
GCTTTCCA,-0.0583
CCCCTGAG,-0.195
ACGTCAAA,-0.0172
ACCGTCTG,0.139
CTGGCTTC,-0.0168
GTATACAA,-0.147
ACATAGCT,-0.14
ACAACTAT,-0.0878
AGAGTACT,-0.0627
TGCCGCCA,0.351
AATGGACC,-0.162
GAACGATA,-0.0155
CGCGCTGA,0.38
ATCCGTAC,0.294
AGTTGCGA,-0.175
CGGCCCAC,0.216
CCAGGGGG,-0.163
AGGCACAG,-0.232
ACAGGGTG,-0.149
GAACCAAA,-0.171
AATGGACG,0.08
CATTGGCG,0.228

# Sample 2
# Target: ABI1, truncated, D143A, DHFR fusion (Arabidopsis thaliana)
# Technique: DHFR PCA, deep sequencing
# Matrix: yeast
# Setting: methotrexate growth selection, single substitutions
# Together with: (+)-ABA 0.032 µM
# Relative to: wild-type fitted maximum
# Reading: higher = stronger binding
# Starting sequence: PYL1, truncated, DHFR fusion (Arabidopsis thaliana); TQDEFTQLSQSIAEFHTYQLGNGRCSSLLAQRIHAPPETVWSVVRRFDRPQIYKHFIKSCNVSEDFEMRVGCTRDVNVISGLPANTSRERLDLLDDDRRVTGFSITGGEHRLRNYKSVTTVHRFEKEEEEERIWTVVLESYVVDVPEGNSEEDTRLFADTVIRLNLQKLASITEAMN
Change,relative binding score [%]
K116S,17
D153P,-5.85
E64D,38
L93G,-0.138
D65M,1.78
T120S,64
V43E,0.69
E67R,7.01
D144A,1.25
T6M,42.1
V143W,-5.98
G81R,-6.23
E67C,12.1
L94C,-5.58
L28W,1.99

# Sample 3
# Target: Hepatocyte nuclear factor 3-beta, forkhead domain (FOXA2, Homo sapiens, UniProt Q9Y261, residues 142-269)
# Technique: protein-binding microarray
# Form: double-stranded DNA, one strand shown
# Matrix: in vitro
# Tested at: not given
# Setting: k-mer, scored over probes, only values ≥0.25
# Reading: higher = stronger binding
# Residues (chain): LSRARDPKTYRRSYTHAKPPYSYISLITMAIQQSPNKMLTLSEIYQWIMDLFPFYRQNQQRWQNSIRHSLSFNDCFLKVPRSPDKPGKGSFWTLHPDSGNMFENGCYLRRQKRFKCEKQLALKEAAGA
Strand,E-score
ATATTATC,0.271
TACACACA,0.428
CACAAACA,0.294
CATACTCA,0.279
ATTCTATA,0.252
CTTGTGTA,0.324
ACTATAGT,0.34
ACAACTCA,0.256
ATCACAAT,0.254
TGTAAACA,0.462
GTCAATAA,0.297
AGTACATA,0.297
ATATTAAT,0.265
ACTACTAT,0.323

# Sample 4
# Target: DDIT3, bZIP domain (human)
# Technique: DHFR protein complementation
# Matrix: yeast
# Setting: single substitutions, most at no-binding floor
# Relative to: wild-type JUN-FOS pair
# Reading: higher = stronger binding
# Starting sequence: JUN, bZIP domain (human); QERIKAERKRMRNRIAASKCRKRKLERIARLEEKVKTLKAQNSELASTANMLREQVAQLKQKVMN; partner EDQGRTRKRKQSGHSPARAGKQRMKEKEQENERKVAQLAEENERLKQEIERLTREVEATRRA
Change,binding fitness [natural log]
A57H,-0.0282
M51K,0.111
N42W,-0.878
K39Q,0.084
V35K,-0.434
S43K,0.182
L52Q,-1.4
Q55S,-0.258
K36W,-0.328
A29D,-0.0954
L45K,-1.4
L45Y,-0.588
Q41H,-0.15
T48M,0.0517

# Sample 5
# Target: CCNB3, cyclin fold, Cln2 fusion (human)
# Technique: yeast growth competition, sequencing
# Matrix: yeast
# Setting: weak parent motif
# Relative to: not given
# Reading: higher = stronger binding
# Starting sequence: MASTL docking peptide (human); PMIAKNLMCELDE
Change,normalised enrichment score
L7V,-0.372
K5D,-0.11
K5R,0.0826
L7R,-0.137
M8K,0.0203
D12Q,0.361
A4Q,-0.0855
M2C,-0.234
I3N,-0.0422
M2N,-0.192
A4K,0.241
A4I,0.143
I3C,-0.0237
A4L,0.511
L7A,-0.0721
I3M,0.0792
M2H,-0.00907
I3R,0.018
K5W,0.305
L11T,-0.163

# Sample 6
# Target: Prothrombin, mature alpha-thrombin (F2, Homo sapiens, UniProt P00734)
# Technique: aptamer microarray, sandwich
# Form: DNA with 2'F-ANA
# Matrix: in vitro
# Tested at: 200 nM
# Setting: whole 15-mer aptamer, many near background
# Together with: Cy3 exosite-II aptamer, 400 nM
# Reading: higher = stronger binding
# Strand: GGTTGGTGTGGTTGG
Modification,mean fluorescence intensity [a.u.]
2'F-ANA at 1 2 5 7 8 9 10 12,47.7
2'F-ANA at 1 2 4 9 11,221
2'F-ANA at 2 3 6 10 11 13 14 15,206
2'F-ANA at 1 6 7 8 9 13 15,142
2'F-ANA at 2 3 4 7 8 9 10 13 14 15,182
2'F-ANA at 1 2 6 8 10 11 13,47.8
2'F-ANA at 2 3 6 7 9 14 15,323
2'F-ANA at 2 3 6 7 9 10 11 13,282
2'F-ANA at 1 4 5 10 11 12,46.4
2'F-ANA at 6 7 9 10 13 14 15,108
2'F-ANA at 1 2 5 8 11 14,52.9
2'F-ANA at 2 4 5 8 9 10 12 13 14 15,54.2
2'F-ANA at 2 4 5 6 7 9 10 12,51.6
2'F-ANA at 1 2 3 6 7 8 15,281
2'F-ANA at 1 3 4 5 6 7 8 9 11 13 14,53.4
2'F-ANA at 2 4 5 8 10 13 15,46.6
